Measurements pooled from the literature.
Protocols differ between the studies behind these lines. ± gives the spread as reported.

Compound | test | test system | conditions | Cmax
Cc1nc(-c2ccc(OCC(C)C)c(C#N)c2)sc1C(=O)O |  | human male, plasma | oral, 40 mg once daily, day 7 or 21, geometric mean | 736 ng/mL
O=C(CCCCCCC(=O)Nc1ccccc1)NO |  | human, serum | oral, 600 mg twice daily | 3430 nM
CC[C@H](C)[C@H](NC(=O)[C@H](CC(C)C)NC(=O)[C@H](Cc1c[nH]c2ccccc12)NC(=O)[C@H](C)NC(=O)[C@@H](NC(=O)[C@H](Cc1ccccc1)NC(=O)[C@H](CC(=O)O)NC(=O)[C@H](CCCNC(=N)N)NC(=O)[C@H](C)NC(=O)[C@H](C)NC(=O)[C@H](CC(C)C)NC(=O)[C@H](C)NC(=O)[C@H](CC(=O)O)NC(=O)[C@H](CC(C)C)NC(=O)[C@@H](NC(=O)[C@@H](NC(=O)[C@H](C)NC(=O)[C@H](CC(C)C)NC(=O)[C@H](CCC(=O)O)NC(=O)[C@H](CO)NC(=O)[C@H](CO)NC(=O)[C@H](Cc1ccccc1)NC(=O)[C@@H](NC(=O)CNC(=O)[C@H](CCC(=O)O)NC(=O)CNC(=O)[C@@H](N)Cc1cnc[nH]1)[C@@H](C)O)[C@@H](C)O)[C@@H](C)CC)[C@@H](C)CC)C(=O)N[C@@H](C)C(=O)N[C@H](C(=O)N[C@@H](CCCCN)C(=O)N[C@H](C(=O)N[C@H](C(=O)N[C@@H](CC(=O)O)C(=O)N[C@@H](CCCCN)C(=O)N[C@@H](CCCCN)C(=O)N[C@@H](CCCCN)C(=O)N[C@@H](CCCCN)C(=O)N[C@@H](CCCCN)C(=O)N[C@@H](CCCCN)C(N)=O)[C@@H](C)O)[C@@H](C)CC)[C@@H](C)O | immunoaffinity LC-MS/MS | healthy human subjects, plasma | intravenous infusion, 1 mg single dose, infused over 15 min | 54.1 nM
O=C(/C=C/c1cccc(S(=O)(=O)Nc2ccccc2)c1)NO |  | human, normal liver function, plasma | intravenous, 400 mg/m^2, 30 min infusion, single dose, mean | 21900 ng/mL
O=C(O)CCCCCCCNC(=O)c1ccccc1O |  | human severe renal impairment, plasma | oral, dose not given, after tenth daily dose, geometric mean | 1070 nM
Cc1[nH]c2ccccc2c1CCNCc1ccc(/C=C/C(=O)NO)cc1 |  | human | 20 mg, day 15, added: IM 400 mg | 15.6 ng/mL
Cc1nc(Nc2ncc(C(=O)Nc3c(C)cccc3Cl)s2)cc(N2CCN(CCO)CC2)n1 |  | human, plasma | oral, 100 mg single dose, day 6 fasted, arithmetic mean, added: omeprazole 40 mg daily steady state, 10 h before | 8 ± 4.5 ng/mL
COc1ccc2nc([S@@+]([O-])Cc3ncc(C)c(OC)c3C)[nH]c2c1 |  | human, CYP2C19 rapid metabolizers, plasma | oral, 40 mg/day, day 1 | 3340 ± 3110 ng/mL
COCCCCn1c(C(=O)N(CC(C)C)[C@@H]2CNC[C@H](C(=O)N3CCOCC3)C2)nc2ccccc21 |  | non-elderly human, plasma | oral, 160 mg once daily, day 1 | 2020 ng/mL
C[C@@H]1COC(Nc2ccc3ncnc(Nc4ccc(OCc5nccs5)c(Cl)c4)c3c2)=N1 |  | human patients, plasma | oral, 300 mg intermittent, cycle 1 | 2740 ± 1440 ng/mL
C=CC(=O)Nc1cc(Nc2ncc(C(=O)OC(C)C)c(-c3cn(C)c4ccccc34)n2)c(OC)cc1N(C)CCN(C)C |  | human, fasted | oral, 40 mg single dose, arithmetic mean | 8.6 ng/mL
Cc1ccc(NC(=O)c2ccc(CN3CCN(C)CC3)cc2)cc1Nc1nccc(-c2cncc(-c3oncc3C)c2)n1 |  | older healthy human adults, plasma | oral, 37.5 mg single dose, fed, mean | 1350 ng/mL
COc1cc(Nc2ncc3c(n2)-c2ccc(Cl)cc2C(c2c(F)cccc2OC)=NC3)ccc1C(=O)O |  | human, plasma | oral, 60 mg twice daily, day 7, steady state, geometric mean | 3030 nM
Nc1ccn([C@@H]2O[C@H](CO)[C@@H](O)C2(F)F)c(=O)n1 |  | human cancer patients, plasma | intravenous, 750 mg/m^2, cycle 1 day 15, added: lonafarnib 150 mg twice daily | 11700 ng/mL
CC#CC(=O)N1CC[C@@H](n2c(=O)n(-c3ccc(Oc4ccccc4)cc3)c3c(N)ncnc32)C1 |  | human, plasma | oral, 160 mg once daily, cycle 1 day 1, fasting | 611 ng/mL
CO[C@H]1C[C@@H]2CC[C@@H](C)[C@@](O)(O2)C(=O)C(=O)N2CCCC[C@H]2C(=O)O[C@H]([C@H](C)C[C@@H]2CC[C@@H](OCCO)[C@H](OC)C2)CC(=O)[C@H](C)/C=C(\C)[C@@H](O)[C@@H](OC)C(=O)[C@H](C)C[C@H](C)/C=C/C=C/C=C/1C |  | healthy adult human, blood | 0.75 mg single dose, geometric mean, added: ritonavir-containing 3D regimen | 15.8 ng/mL
CC(C)CN(C[C@@H](O)[C@H](Cc1ccccc1)NC(=O)O[C@H]1CCOC1)S(=O)(=O)c1ccc(N)cc1 | HPLC | human, plasma | oral, fosamprenavir 700 mg twice daily, added: ritonavir 100 mg twice daily | 3960 ng/mL
CCc1cc2c(cc1N1CCC(N3CCOCC3)CC1)C(C)(C)c1[nH]c3cc(C#N)ccc3c1C2=O | LC-MS, noncompartmental | human patients under sample A years, plasma | oral, 600 mg/day, cycle 1 day 21, geometric mean | 677 ng/mL
C#Cc1cccc(Nc2ncnc3cc(OCCOC)c(OCCOC)cc23)c1 |  | human, plasma | oral, day 29, normalised to 150 mg dose, added: dovitinib | 317 ± 303 ng/mL

Some of these lines once more:
Compound | test | test system | conditions | Cmax
COc1ccc2nc([S@@+]([O-])Cc3ncc(C)c(OC)c3C)[nH]c2c1 |  | human, CYP2C19 rapid metabolizers, plasma | oral, 40 mg/day, day 1 | 3340 ± 3110 ng/mL
O=C(CCCCCCC(=O)Nc1ccccc1)NO |  | human, serum | oral, 600 mg twice daily | 3430 nM
Nc1ccn([C@@H]2O[C@H](CO)[C@@H](O)C2(F)F)c(=O)n1 |  | human cancer patients, plasma | intravenous, 750 mg/m^2, cycle 1 day 15, added: lonafarnib 150 mg twice daily | 11700 ng/mL
